Experimental data gathered from unrelated publications.
Each line is one published result; not all experiments were run side by side. Numbers after ± are the reported error.
CHRNA1/Acetylcholine receptor subunit epsilon/Acetylcholine receptor subunit delta with beta1 subunit: CHRNA1/Acetylcholine receptor subunit epsilon/Acetylcholine receptor subunit delta, with beta1 subunit (Homo sapiens, UniProt P02708+Q04844+Q07001)

Protein sequences, listed by entry. Tags and fused reporters are not part of them. Residues count along the entry.
UniProt P02708, 21-457 limits assumed: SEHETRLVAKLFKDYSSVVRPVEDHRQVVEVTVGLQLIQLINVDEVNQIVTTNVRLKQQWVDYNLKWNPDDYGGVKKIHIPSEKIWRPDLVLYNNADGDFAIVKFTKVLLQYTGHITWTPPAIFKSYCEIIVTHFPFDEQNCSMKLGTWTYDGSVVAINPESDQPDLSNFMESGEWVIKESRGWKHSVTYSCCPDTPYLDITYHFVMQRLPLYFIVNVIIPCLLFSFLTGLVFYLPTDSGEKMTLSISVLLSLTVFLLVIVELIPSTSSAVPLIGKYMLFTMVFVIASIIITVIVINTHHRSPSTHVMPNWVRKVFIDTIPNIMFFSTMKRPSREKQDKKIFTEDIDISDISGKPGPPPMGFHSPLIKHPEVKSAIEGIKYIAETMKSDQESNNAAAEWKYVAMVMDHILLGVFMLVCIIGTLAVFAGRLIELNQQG
UniProt Q04844, 21-493 limits assumed: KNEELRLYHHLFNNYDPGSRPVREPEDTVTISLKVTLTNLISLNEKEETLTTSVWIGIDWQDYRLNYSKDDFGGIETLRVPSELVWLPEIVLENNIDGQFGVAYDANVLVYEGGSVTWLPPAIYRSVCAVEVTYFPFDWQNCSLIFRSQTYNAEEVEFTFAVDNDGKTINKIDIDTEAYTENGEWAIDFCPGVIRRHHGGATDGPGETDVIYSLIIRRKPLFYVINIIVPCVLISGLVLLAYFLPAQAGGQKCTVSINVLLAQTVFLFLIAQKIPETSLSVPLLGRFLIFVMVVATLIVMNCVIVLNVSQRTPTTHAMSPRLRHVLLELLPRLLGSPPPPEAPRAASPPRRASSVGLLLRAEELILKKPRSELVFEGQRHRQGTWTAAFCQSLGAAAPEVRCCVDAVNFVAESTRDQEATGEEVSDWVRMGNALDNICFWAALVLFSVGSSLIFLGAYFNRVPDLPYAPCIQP
UniProt Q07001, 22-517 limits assumed: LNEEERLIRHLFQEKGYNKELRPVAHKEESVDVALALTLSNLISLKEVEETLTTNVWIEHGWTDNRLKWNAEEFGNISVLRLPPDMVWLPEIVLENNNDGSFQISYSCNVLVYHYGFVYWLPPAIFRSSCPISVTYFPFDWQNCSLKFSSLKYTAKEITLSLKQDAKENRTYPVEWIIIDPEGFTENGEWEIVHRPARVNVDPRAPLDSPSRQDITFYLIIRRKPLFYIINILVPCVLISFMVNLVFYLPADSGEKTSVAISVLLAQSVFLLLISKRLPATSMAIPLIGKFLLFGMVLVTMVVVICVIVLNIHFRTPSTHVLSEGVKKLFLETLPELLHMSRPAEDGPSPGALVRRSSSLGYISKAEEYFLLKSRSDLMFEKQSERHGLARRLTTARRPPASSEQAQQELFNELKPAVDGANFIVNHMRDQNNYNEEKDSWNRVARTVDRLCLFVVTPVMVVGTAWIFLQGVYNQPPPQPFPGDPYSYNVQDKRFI
UniProt P09545, 611-741 limits assumed: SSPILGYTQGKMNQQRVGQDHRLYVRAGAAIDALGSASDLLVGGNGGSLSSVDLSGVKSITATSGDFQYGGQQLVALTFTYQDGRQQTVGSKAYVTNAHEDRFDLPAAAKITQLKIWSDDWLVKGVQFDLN
UniProt P04293, whole entry: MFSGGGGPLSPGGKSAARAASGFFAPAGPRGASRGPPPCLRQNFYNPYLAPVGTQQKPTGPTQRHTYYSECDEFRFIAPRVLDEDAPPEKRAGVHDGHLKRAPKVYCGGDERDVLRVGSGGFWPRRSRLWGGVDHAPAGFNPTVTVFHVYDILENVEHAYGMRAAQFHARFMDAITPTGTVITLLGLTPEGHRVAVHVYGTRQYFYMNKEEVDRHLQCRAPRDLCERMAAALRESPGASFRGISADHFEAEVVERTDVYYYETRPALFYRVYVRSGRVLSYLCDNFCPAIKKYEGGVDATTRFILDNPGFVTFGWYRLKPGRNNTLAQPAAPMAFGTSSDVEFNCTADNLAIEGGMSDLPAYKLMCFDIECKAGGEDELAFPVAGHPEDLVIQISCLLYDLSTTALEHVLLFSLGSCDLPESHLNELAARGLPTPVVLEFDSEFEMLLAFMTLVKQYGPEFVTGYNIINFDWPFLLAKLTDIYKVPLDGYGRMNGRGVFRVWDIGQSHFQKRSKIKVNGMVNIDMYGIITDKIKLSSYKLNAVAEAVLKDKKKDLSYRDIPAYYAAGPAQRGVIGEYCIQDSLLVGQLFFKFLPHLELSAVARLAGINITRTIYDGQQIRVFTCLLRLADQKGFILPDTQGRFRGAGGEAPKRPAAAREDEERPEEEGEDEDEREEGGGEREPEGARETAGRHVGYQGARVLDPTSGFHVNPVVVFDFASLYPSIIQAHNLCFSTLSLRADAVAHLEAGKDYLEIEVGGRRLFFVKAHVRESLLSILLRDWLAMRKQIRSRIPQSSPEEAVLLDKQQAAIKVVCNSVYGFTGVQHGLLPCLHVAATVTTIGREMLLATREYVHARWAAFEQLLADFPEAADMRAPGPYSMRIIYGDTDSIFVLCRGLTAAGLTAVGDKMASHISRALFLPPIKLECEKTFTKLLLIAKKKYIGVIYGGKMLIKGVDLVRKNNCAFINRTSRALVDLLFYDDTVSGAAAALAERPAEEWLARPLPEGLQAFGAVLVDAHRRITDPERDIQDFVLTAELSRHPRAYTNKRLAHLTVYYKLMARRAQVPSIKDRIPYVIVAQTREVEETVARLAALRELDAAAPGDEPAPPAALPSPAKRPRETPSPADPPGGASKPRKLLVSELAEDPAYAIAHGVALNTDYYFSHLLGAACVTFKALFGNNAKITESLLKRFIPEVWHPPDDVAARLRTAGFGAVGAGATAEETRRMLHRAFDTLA
UniProt P37136, 32-614 limits assumed: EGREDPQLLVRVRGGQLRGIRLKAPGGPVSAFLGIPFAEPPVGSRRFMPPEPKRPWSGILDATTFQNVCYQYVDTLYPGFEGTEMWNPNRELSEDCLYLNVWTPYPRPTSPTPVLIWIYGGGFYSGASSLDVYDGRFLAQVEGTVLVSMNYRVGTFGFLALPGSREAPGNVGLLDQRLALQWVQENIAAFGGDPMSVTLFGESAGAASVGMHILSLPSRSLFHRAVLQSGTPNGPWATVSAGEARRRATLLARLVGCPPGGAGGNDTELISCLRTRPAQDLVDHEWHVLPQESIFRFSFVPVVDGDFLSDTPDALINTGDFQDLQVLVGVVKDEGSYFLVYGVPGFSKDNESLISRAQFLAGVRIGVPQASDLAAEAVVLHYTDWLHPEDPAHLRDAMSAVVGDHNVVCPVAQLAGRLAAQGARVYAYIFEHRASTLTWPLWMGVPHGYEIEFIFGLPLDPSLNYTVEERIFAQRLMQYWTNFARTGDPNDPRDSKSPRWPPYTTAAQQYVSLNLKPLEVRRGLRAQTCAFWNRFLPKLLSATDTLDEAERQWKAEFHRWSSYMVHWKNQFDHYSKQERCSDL
UniProt P0DOF5, whole entry: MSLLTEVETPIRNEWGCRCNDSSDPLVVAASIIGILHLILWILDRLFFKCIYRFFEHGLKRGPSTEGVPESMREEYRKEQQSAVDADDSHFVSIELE
UniProt A0A4X1VEU5, 29-602 limits assumed: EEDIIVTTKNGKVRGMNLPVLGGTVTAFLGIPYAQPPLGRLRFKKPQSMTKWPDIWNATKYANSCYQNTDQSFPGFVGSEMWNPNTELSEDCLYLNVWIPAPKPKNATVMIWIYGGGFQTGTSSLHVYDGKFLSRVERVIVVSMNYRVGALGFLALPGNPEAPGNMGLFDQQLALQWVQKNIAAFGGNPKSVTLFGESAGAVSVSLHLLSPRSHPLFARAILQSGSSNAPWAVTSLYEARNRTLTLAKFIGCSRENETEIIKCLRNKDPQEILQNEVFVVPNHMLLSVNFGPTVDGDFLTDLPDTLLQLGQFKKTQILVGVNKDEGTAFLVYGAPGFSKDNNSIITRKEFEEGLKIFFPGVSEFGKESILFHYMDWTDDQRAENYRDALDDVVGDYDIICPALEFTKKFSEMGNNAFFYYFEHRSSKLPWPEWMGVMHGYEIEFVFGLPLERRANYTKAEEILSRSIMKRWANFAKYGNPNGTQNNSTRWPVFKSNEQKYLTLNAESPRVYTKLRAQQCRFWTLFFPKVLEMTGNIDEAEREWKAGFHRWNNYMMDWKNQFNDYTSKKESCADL
UniProt P05067, 672-713 limits assumed: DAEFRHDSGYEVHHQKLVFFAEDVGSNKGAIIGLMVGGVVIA
UniProt P06276, whole entry, looked up: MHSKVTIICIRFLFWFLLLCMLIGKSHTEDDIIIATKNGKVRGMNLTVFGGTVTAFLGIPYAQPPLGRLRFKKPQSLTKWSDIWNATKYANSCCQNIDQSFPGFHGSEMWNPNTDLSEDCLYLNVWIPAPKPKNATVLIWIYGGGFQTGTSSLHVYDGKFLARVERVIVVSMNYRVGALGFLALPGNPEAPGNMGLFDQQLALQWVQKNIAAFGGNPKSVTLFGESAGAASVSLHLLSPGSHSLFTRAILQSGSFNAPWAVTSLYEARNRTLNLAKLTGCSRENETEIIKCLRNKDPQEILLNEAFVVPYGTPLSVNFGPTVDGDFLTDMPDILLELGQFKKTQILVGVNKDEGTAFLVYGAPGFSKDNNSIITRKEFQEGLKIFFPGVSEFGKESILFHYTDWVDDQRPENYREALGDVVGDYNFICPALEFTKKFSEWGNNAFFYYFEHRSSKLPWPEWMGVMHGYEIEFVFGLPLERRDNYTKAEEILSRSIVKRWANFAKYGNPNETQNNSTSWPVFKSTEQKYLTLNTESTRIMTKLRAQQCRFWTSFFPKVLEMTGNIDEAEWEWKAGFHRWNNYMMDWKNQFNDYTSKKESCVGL
UniProt P11230, 24-501 partner limits assumed: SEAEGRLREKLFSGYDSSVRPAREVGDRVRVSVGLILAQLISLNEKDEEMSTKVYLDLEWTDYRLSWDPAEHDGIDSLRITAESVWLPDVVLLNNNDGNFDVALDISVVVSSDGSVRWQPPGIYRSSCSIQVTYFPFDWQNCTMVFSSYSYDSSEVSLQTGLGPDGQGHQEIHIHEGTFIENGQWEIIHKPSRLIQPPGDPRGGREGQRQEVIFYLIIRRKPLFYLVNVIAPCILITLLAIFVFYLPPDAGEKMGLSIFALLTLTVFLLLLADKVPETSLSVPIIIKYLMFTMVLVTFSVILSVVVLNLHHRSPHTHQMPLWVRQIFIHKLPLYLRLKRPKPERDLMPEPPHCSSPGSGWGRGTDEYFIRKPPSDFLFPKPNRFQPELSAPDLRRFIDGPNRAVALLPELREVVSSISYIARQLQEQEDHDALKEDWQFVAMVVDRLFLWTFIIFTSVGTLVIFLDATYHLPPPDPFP

With `CC(=O)N[C@H]1[C@H](O[C@@H]([C@H](O)[C@H](CNc2ccccc2C(=O)O)NC(C)=O)[C@H](O)CO)O[C@H](CO)[C@@H](O[C@@H]2O[C@H](CO[C@H]3O[C@H](CO)[C@@H](O)[C@H](O)[C@@H]3O[C@@H]3O[C@H](CO)[C@@H](O)[C@H](O)[C@H]3NC(C)=O)[C@@H](O)[C@H](O[C@H]3O[C@H](CO)[C@@H](O)[C@H](O)[C@@H]3O[C@@H]3O[C@H](CO)[C@@H](O)[C@H](O)[C@H]3NC(C)=O)[C@@H]2O)[C@@H]1O` the Kd was 0.071 ± 0.065 µM (Hemolysin, beta-prism lectin domain (hlyA, Vibrio cholerae serotype O1, UniProt P09545)).
`Cc1cn([C@@H]2CC[C@H](OC(C(=O)O)P(=O)(O)O)C2)c(=O)[nH]c1=O` (relative stereo) has an IC50 of 26 ± 20 µM (DNA polymerase catalytic subunit (Herpes simplex virus, UniProt P04293); enzyme activity, inhibitor; with: activated calf thymus DNA).
`CCOC(=O)c1c(-c2ccc(Cl)cc2Cl)n(-c2nc(-c3ccc(Cl)cc3)c3c(NC(=O)c4ccccc4)nnc-3[nH]2)[nH]c1=O` gave a CC50 of 5.7 µM (786-0; SRB; 5-dose).
`O=C(Nc1cccc(C2=NCCN2)c1)c1ccc(-c2ccc(C(=O)Nc3cccc(C4=NCCN4)c3)cc2)cc1` has an EC50 of 0.0077 µM (Trypanosoma brucei brucei; resazurin; Lister 427, bloodstream form; 3 d).
The viability of `Cc1nn(-c2ccc(Cl)cc2)c2c1C(c1ccc([N+](=O)[O-])cc1)C(C#N)=C(N)O2` (stereo not shown) is reported as 67.2% (Vero E6; 6.3 µM).
For `COP(=O)(OC)Oc1ccc([N+](=O)[O-])cc1Cl`, the IC50 was 0.082 µM (Acetylcholinesterase (Ache, Rattus norvegicus, UniProt P37136); enzyme activity, inhibitor, discontinuous Ellman; rat, postnatal day 1, rat skeletal muscle homogenate; 15 min, 37 °C).
`C1CCC2(CC1)CCNCC2` has an IC50 of 0.9 ± 0.1 µM (Matrix protein 2 (Influenza A virus, UniProt P0DOF5); viral replication; Udorn).
For `CC[C@H](C)[C@@H]1NC(=O)[C@H](CCC(=O)O)NC(=O)[C@@H]2CCCN2C(=O)[C@H](Cc2c[nH]cn2)NC(=O)[C@H](CCCNC(=N)N)NC(=O)[C@H](C(C)C)NC(=O)[C@H](CC(N)=O)NC(=O)[C@@H]2CSSC[C@H](NC(=O)CN)C(=O)N[C@@H](CSSC[C@@H](C(N)=O)NC1=O)C(=O)N[C@@H](CO)C(=O)N[C@@H](Cc1c[nH]cn1)C(=O)N1CCC[C@H]1C(=O)N[C@@H](C(C)C)C(=O)N2`, the IC50 was > 10 µM (CHRNA1/Acetylcholine receptor subunit epsilon/Acetylcholine receptor subunit delta with beta1 subunit; ion current, antagonist, two-electrode voltage clamp; Xenopus oocytes; with: ACh 100 µM).
With `CC(C)NP(=O)(NC(C)C)OP(=O)(NC(C)C)NC(C)C` the Ki was 0.06 ± 0.02 µM (Butyrylcholinesterase (Sus scrofa, UniProt A0A4X1VEU5); enzyme activity, competitive inhibitor; pH 8.0).
`CN(C)c1cccc(Oc2cnc(Nc3cccc(O)c3)nc2)c1` gave an IC50 of 29.1 µM (Amyloid-beta precursor protein, Aβ42 with fibrinogen (APP, Homo sapiens, UniProt P05067); AlphaLISA).
`N#Cc1c(-c2ccc(Cl)cc2Cl)n(-c2nc(-c3ccc(Cl)cc3)c3c(NC(=O)c4ccccc4)nnc-3[nH]2)[nH]c1=O` has a CC50 of > 100 µM (SF-268; SRB).
With `C[C@@H](O)[C@@H]1NC(=O)[C@@H]2CSCSC[C@@H](C(=O)N[C@H](CC(=O)N[C@@H](CCCNC(=N)N)C(=O)O)Cc3ccc(O)cc3)NC(=O)[C@H](CCC(N)=O)NC(=O)[C@H](Cc3ccc(O)c(I)c3)NC(=O)[C@H](CCCNC(=N)N)NC(=O)[C@H](CSSC[C@H](NC(=O)CN)C(=O)N2)NC(=O)[C@H](CCCNC(=N)N)NC(=O)[C@@H]2CCCN2C(=O)[C@H](CC(=O)O)NC1=O` the IC50 was > 10 µM (CHRNA1/Acetylcholine receptor subunit epsilon/Acetylcholine receptor subunit delta with beta1 subunit; ion current, antagonist, two-electrode voltage clamp; Xenopus oocytes; no inhibition at top concentration).
`CC[N+](CC)(CCNC(=O)C(=O)NCC[N+](CC)(CC)Cc1ccccc1Cl)Cc1ccccc1Cl` has an IC50 of 6.8 ± 1.1 µM (Cholinesterase (BCHE, Homo sapiens, UniProt P06276); enzyme activity, inhibitor).

Some of these lines once more:
With `CC(=O)N[C@H]1[C@H](O[C@@H]([C@H](O)[C@H](CNc2ccccc2C(=O)O)NC(C)=O)[C@H](O)CO)O[C@H](CO)[C@@H](O[C@@H]2O[C@H](CO[C@H]3O[C@H](CO)[C@@H](O)[C@H](O)[C@@H]3O[C@@H]3O[C@H](CO)[C@@H](O)[C@H](O)[C@H]3NC(C)=O)[C@@H](O)[C@H](O[C@H]3O[C@H](CO)[C@@H](O)[C@H](O)[C@@H]3O[C@@H]3O[C@H](CO)[C@@H](O)[C@H](O)[C@H]3NC(C)=O)[C@@H]2O)[C@@H]1O` the Kd was 0.071 ± 0.065 µM (Hemolysin, beta-prism lectin domain (hlyA, Vibrio cholerae serotype O1, UniProt P09545)).
`Cc1cn([C@@H]2CC[C@H](OC(C(=O)O)P(=O)(O)O)C2)c(=O)[nH]c1=O` (relative stereo) has an IC50 of 26 ± 20 µM (DNA polymerase catalytic subunit (Herpes simplex virus, UniProt P04293); enzyme activity, inhibitor; with: activated calf thymus DNA).
